Results of several laboratories.
Lines come from different studies, so protocols differ. “And” joins repeats or separate records; there may be more than shown. Numbers after ± are the reported error.

For `COc1c(Cl)cccc1Nc1c(-c2ccncc2C#C[C@@]2(C)CCCN2C(=O)/C=C/CN(C)C)[nH]c2c1C(=O)NCC2`, the tumour regression was 35.8% (NCI-H2073 EGFR SVD knock-in xenograft, BALB/c nude mice; oral, 50 mg/kg once daily, 21 days, regression if TGI above 100 %).
Under “supercoiled DNA form”, `O=[N+]([O-])[O-].O=c1c(C=NN=C([S-])Nc2ccccc2)coc2ccccc12.[Cu+2].c1ccc(-c2ccccn2)nc1` is recorded as 90% (DNA cleavage; supercoiled pUC19 DNA; 100 µM, 4 h, 37 °C, no reducing agent, added: DNA 40 µM).
`CN1CCC[C@]1(C)/C=C/S(=O)(=O)NC(=O)Nc1c2c(cc3c1CCC3)CCC2` gave an IL-1β inhibition of 99.2% (human, whole blood ex vivo; 250 mg single dose, 3 h, single ascending dose, added: LPS and ATP).
For `O=C(NS(=O)(=O)c1cccs1)c1cc2ccccc2n1Cc1ccc(Br)c2ccccc12`, “decrease in serum uric acid” read 90.6% (mouse, acute hyperuricaemia model; 1 mg/kg).
The IC50 of `CNS(=O)(=O)Nc1nccc(Cc2c(C)c3ccc(Oc4ncccc4F)cc3oc2=O)c1F` is reported as 3.1 nM (KCL-22; cell viability; 7 days).
`CC(CCC(=O)NCc1ccc(C(=O)NO)cc1)C1CCC2C3C(O)CC4CC(O)CCC4(C)C3CCC12C` (centres unmarked) gave a relative abundance of 39% (refers to: Tauro-conj; PCK rat (Pkhd1 mutant), peripheral blood; oral gavage, dose not given, 5 months; relative to: total bile acids).
The IOP of `NC[C@@H](C(=O)Nc1ccc(-c2cn[nH]c2)cc1)c1ccccc1` is reported as 17.3 mmHg (tonometry; Macaca cyclopis, ocular normotensive; ocular, 0.03%, 52 h).
For `COc1cc2c(NC3CCN(C(C)C)CC3)cc(N3CCOCC3)nc2cc1OCCCN1CCCC1`, “log2 fold change” read 0.0867 (TMT proteomics, refers to: NPTXR; 5xFAD mice, hippocampus; dose not given; relative to: wild-type mice).
The relative co-enrichment of `C=CC(=O)N1[C@@H](c2ccc3c(c2)OCO3)c2[nH]c3ccccc3c2C[C@H]1C(=O)N1CCN(C)CC1` is reported as 104% (human cyclin E1 N112C-3xFLAG:CDK2; co-IP with TMT proteomics, refers to: TRIM21; concentration not given, P19474; relative to: wild type DMSO).
`CCCCCCCCCCCCCCCC(=O)NCCCC[C@H](NC(=O)[C@H](CCC(=O)O)NC(=O)[C@H](Cc1ccc(O)cc1)NC(=O)[C@H](CCC(=O)O)NC(=O)COCC(=O)NCCCOCCOCCOCCCNC(=O)[C@H](Cc1ccccc1)NC(=O)[C@H](CC(N)=O)NC(=O)[C@H](Cc1c[nH]cn1)NC(=O)[C@@H](NC(=O)[C@H](CC(=O)O)NC(=O)[C@H](CCC(N)=O)NC(=O)[C@H](CC(C)C)NC(=O)[C@H](CCCCN)NC(=O)[C@H](CCCCN)NC(=O)[C@H](CCCNC(=N)N)NC(=O)[C@H](CC(C)C)NC(=O)[C@H](Cc1c[nH]c2ccccc12)NC(=O)[C@H](CCC(=O)O)NC(=O)[C@@H](NC(=O)[C@H](CCCNC(=N)N)NC(=O)[C@H](CCC(=O)O)NC(=O)[C@H](CCSC)NC(=O)[C@H](CO)NC(=O)[C@H](CC(N)=O)NC(=O)[C@H](CC(C)C)NC(=O)[C@H](Cc1c[nH]cn1)NC(=O)[C@H](CCCCN)NC(=O)CNC(=O)[C@H](CC(C)C)NC(=O)[C@H](CC(N)=O)NC(=O)[C@H](Cc1c[nH]cn1)NC(=O)[C@H](CCSC)NC(=O)[C@H](CC(C)C)NC(=O)[C@H](CCC(N)=O)NC(=O)[C@@H](NC(=O)[C@H](CCC(=O)O)NC(=O)[C@H](CO)NC(=O)[C@@H](NC(=O)[C@@H](N)CO)C(C)C)[C@@H](C)CC)C(C)C)C(C)C)C(=O)N[C@@H](CCC(=O)O)C(=O)N[C@@H](Cc1ccc(O)cc1)C(=O)N[C@@H](CCC(=O)O)C(N)=O`: “trabecular bone volume fraction” 52.1 ± 18.3% (micro-CT; humanized PTH1R mouse, distal femur; 50 nmol/kg/day, 3 weeks, daily dosing).
The partial response of `COCC1CN(C2CCN(c3cc(OC)c(Nc4ncc(Br)c(Nc5ccc6c(c5P(C)(C)=O)OCCO6)n4)cc3C)CC2)C1` is reported as 0% (RECIST 1.1; advanced EGFR-mutant NSCLC patients; 60 mg once daily).
Under “chain scission rate constant”, `CCC(=O)N[C@@H](C)C(=O)OCC(=O)N[C@@H](C)C(=O)O` is recorded as 0.003 h⁻¹ (water; pH 3, 50 °C).
The ΔTm of `O=C(N/N=C/c1ccc(C[n+]2ccccc2)cc1)C(=O)N/N=C/c1ccc(C[n+]2ccccc2)cc1` is reported as 4.5 ± 2 °C (telomeric G4 DNA hybrid-2; FRET melting; 1 µM, DNA 0.2 µM).
For `COCCOCCOCCNC(=O)Cc1cc(CC(=O)N[C@H]2C[C@H]3C(=O)Nc4cc(OCCOCCOCCOC)cc(n4)C(=O)N4CCC[C@H]4C(=O)Nc4cc(OCCOCCOCCOC)cc(n4)C(=O)N4CCC[C@H]4C(=O)Nc4cc(OCCOCCOCCOC)cc(n4)C(=O)N3C2)cc(CC(=O)N[C@H]2C[C@H]3C(=O)Nc4cc(OCCOCCOCCOC)cc(n4)C(=O)N4CCC[C@H]4C(=O)Nc4cc(OCCOCCOCCOC)cc(n4)C(=O)N4CCC[C@H]4C(=O)Nc4cc(OCCOCCOCCOC)cc(n4)C(=O)N3C2)c1`, the ΔH was -0.765 ± 0.0956 kcal/mol (anion binding, ITC; water; 298 K, added: sodium iodide).
Under “log2 fold change”, `COC1CN([C@H]2CC[C@H]([C@@]3(C)Oc4c(Cl)cc(C(=O)NCc5c(SC)cc(C)[nH]c5=O)c(C)c4O3)CC2)C1` is recorded as 0.872 (RNA-seq, refers to: LPAR1 mouse homolog; mouse, HT-1376 xenograft, whole blood; dose not given; relative to: vehicle).
For `O=C(N/N=C/c1cc[n+](CC2CC2)c2ccccc12)c1cccc(C(=O)N/N=C/c2cc[n+](CC3CC3)c3ccccc23)c1`, the ΔTm was 14 ± 0.7 °C (telomeric G4 DNA hybrid-2; FRET melting; 1 µM, DNA 0.2 µM).
For `C=CC(=O)Nc1cccc(Cn2ncc3cnc(Nc4cnn(CCOC)c4)nc32)c1`, the binding was 20% (human SNARK; KINOMEscan; 100 nM; relative to: control).
`COc1ccc(C(=O)CCc2cc(C(CCc3ccc(O)cc3OC)c3ccc(O)cc3)c(O)cc2OC)cc1` (racemic): “LTB4 isomers level” 349 ± 137 pg/mL (human blood; 0.3 µM, added: A23187).
`Cc1ncsc1-c1ccc(C(C)NC(=O)C2CC(O)CN2C(=O)C(NC(=O)CCCCCCCCCCN2CCCC(Nc3ncc(Cl)c(Nc4ccccc4S(=O)(=O)C(C)C)n3)C2)C(C)(C)C)cc1` (centres unmarked) — result for “log2 fold change”: -1.47 (22Rv1; RNA-seq, refers to: POLL mRNA; concentration not given; relative to: DMSO).
Under locomotion, `CC1Cc2ccccc2N1C(=O)CN1CCN(Cc2ccccc2)CC1` (centres unmarked) is recorded as “increased” (open field test; PC7-WT mice; 1 mg/kg; relative to: vehicle).
`CCCCCc1ccc(S(=O)(=O)N2CC2C(=O)OC)cc1` (centres unmarked) — result for “tumour growth inhibition”: 64% (mouse, Lewis lung carcinoma; intraperitoneal, 15 mg/kg, 16 doses, day 14).
`COc1cc(O)ccc1CCC(c1ccc(O)cc1)c1cc2c(c(C)c1O)OC(c1ccc(O)cc1)CC2` (mixture of isomers) gave an LTB4 level of 1280 ± 377 pg/mL (human blood; 3 µM, added: A23187).
`CC(=O)[O-].O.[Cu+2].[O-]c1ccc(Br)cc1C=NCCN1CCOCC1` — result for “ferric reducing power”: 11.2% (FRAP; 40 µM).
The plaque area of `CC(C)[C@H](NC(=O)[C@H](CC(=O)O)NC(=O)[C@@H](NC(=O)[C@H](Cc1c[nH]c2ccccc12)NC(=O)[C@H](CCC(=O)O)NC(=O)[C@H](C)NC(=O)[C@H](CC(=O)O)NC(=O)CNC(=O)[C@H](Cc1ccc(O)cc1)NC(=O)[C@H](Cc1ccc(OP(=O)(O)O)cc1)NC(=O)[C@H](Cc1ccc(O)cc1)NC(=O)CCNC(=O)c1ccc(C(=O)[O-])c(-c2c3ccc(=[N+](C)C)cc-3oc3cc(N(C)C)ccc23)c1)C(C)C)C(=O)N[C@@H](CO)C(=O)O` is reported as 24.9 ± 1.7% (Oil Red O staining; ApoE-/- mice high-fat diet, aorta; iv, 3.65 mg/kg every three days, 21 days).
`CCCCCCCCCCCCCCCC(=O)OCC(CSC[C@H](N)C(=O)N[C@@H](CO)C(=O)N[C@@H](CCCCN)C(=O)N[C@@H](CCCCN)C(=O)N[C@@H](CCCCN)C(=O)N[C@@H](CCCCN)C(=O)NCCCCCC(=O)N[C@@H](CCCCN)C(=O)N[C@@H](CC(C)C)C(=O)N[C@H](C(=O)N[C@@H](Cc1ccccc1)C(=O)N[C@@H](Cc1ccccc1)C(=O)N[C@@H](Cc1ccc2ccccc2c1)C(=O)O)C(C)C)OC(=O)CCCCCCCCCCCCCCC` (some centres unmarked) gave an Iba1 level of 1.02 and 1.12 and 0.956 and 1.01 and 0.514 (APP/PS1 transgenic mouse, hippocampus; intrahippocampal, dose not given, unit not given; relative to: injected over adjacent side).
`O=S(=O)(NCc1ccncc1)c1ccc(C2CCCCC2)cc1`: “β-amyloid accumulation reduction” about 37% (immunohistochemistry; 5XFAD mice male 1-year-old, hippocampus; ip, 0.3 mg/kg daily, 6 wk; relative to: vehicle).

A few entries again:
Under locomotion, `CC1Cc2ccccc2N1C(=O)CN1CCN(Cc2ccccc2)CC1` (centres unmarked) is recorded as “increased” (open field test; PC7-WT mice; 1 mg/kg; relative to: vehicle).
`CCCCCc1ccc(S(=O)(=O)N2CC2C(=O)OC)cc1` (centres unmarked) — result for “tumour growth inhibition”: 64% (mouse, Lewis lung carcinoma; intraperitoneal, 15 mg/kg, 16 doses, day 14).
`COc1cc(O)ccc1CCC(c1ccc(O)cc1)c1cc2c(c(C)c1O)OC(c1ccc(O)cc1)CC2` (mixture of isomers) gave an LTB4 level of 1280 ± 377 pg/mL (human blood; 3 µM, added: A23187).
